Published values pooled from the literature.
Numbered parts are unrelated; each lists some results of a single study.

Set 1
Target: RING finger protein unkempt homolog, zinc fingers 1-6, GST-SBP tag (UNK, Homo sapiens, UniProt Q9C0B0, residues 30-357)
Method: RNA Bind-n-Seq
Molecule type: RNA
Sample: in vitro
Concentration: not given
Setting: RNA with constant flanks, human and mouse sites, ends assumed
Baseline: input RNA pool
Direction: higher = stronger binding
Construct (chain): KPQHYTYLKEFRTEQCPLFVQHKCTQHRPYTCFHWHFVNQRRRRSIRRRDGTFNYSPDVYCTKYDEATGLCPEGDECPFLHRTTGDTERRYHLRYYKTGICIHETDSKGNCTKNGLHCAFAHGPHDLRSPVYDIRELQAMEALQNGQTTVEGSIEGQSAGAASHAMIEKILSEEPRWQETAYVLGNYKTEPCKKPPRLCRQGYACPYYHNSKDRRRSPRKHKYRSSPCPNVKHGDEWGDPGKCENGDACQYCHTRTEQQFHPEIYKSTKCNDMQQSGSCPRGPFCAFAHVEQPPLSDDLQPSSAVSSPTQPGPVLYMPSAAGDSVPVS
Oligonucleotide	bound/input enrichment
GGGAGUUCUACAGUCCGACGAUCUCGACUCCAGCGGCCCCGACAGCACGGAAGCAGCUGGAUAAAGAACAGGACCUUGCCUCAUAGUAUUCGAUCAGAUUCAGAAGAUAUCUGUUUAUUUACGAAGGAUGAACCCAAUUCAACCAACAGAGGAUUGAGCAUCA	0.0738 ratio
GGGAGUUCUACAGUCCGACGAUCACAAAGCACUUCAUCUAUUUUUACUUGGGUCAAGUUGCAAUCCUCCUCUUCAAGUCAGGCUAGGUGGCCAUGGUGAAGGUGUCAGUGGCGGCGGCAGCGAUGGCAAGCAGGCGGCGUUGCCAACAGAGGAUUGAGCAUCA	0.333 ratio
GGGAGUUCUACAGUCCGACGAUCGCCAGCCACUCGGAGCUAAUCCACAAUCUCCGCAAAAAUGGAAUCAUCAAGACAGAUAAAGUAUUUGAAGUGAUGCUGGCUACAGACCGCUCCCACUAUGCAAAAUGUAACCCAUACAUGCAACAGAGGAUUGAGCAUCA	0.135 ratio
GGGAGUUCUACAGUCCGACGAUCGUGGUGACUGAGUUCCCUUUAUCAAACCCUUCAGUGGGCACAAAAUUGAGUGCUUGAUUUUAGGUUUUAUUUUUUUAUGAAUGUCCAAAUCUGUGUUUCCCCCUGCCCUCCCAGACUGUGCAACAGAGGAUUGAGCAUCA	9 ratio
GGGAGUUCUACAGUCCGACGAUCGUUUUUAUACAGCCUCAAAUUGUUUUAUUAAAAAAAAAAAGAUUAAAAAAUGGUGAUGCUUAGCAGCAGUUUGUAUAAGCUCCUAGUGUCAACUCCAUGGGACUGAUGGCUUUGCUCAUUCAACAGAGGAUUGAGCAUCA	1.25 ratio
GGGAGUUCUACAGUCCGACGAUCGGCAUCGACCUGCUUCGCACCUACCUGUGGCGCUGCCAGUUCCUUUUACCCUUCGUCAGCUUGGGCUUGAUGUGCUUUGGGGCGUUGAUUGGCCUCUGUGCCUGUAUCUGCCGCAGCCUGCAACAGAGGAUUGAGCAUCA	0.113 ratio
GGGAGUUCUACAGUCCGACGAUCAGAAAAUAAAUGAUUUUUAAGUUAUGUCUAUUAAUCUGACUGUAGAUAUAUAUAUUUACCUCCUUAGUAAUGCAAGAAGUGUUUGUGGGAAGCAGAGAAGCAAGCAACUGUAUUUCUUGUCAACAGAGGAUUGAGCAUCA	1.22 ratio
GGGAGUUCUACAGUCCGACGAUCGAUGCCCGCACAAAACAGCUGAGGCAGCUACUGGAGAAGGUGCAAAACAUGUCUCAAUCCAUAGAAGUCUUGGACAGGCGAACUCAGAGAGACCUGCAGUACGUGGAGAAGAUGGAGAACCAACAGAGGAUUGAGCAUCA	0.268 ratio
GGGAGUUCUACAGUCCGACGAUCUAUAUAUAUAUAUAUCAAAAAGCCAAAAUCUUUAUUUUUAUGCACCUAGAAUAUUUUAAAUAGUUCUCAAUAUUAAAAAGUAUGAGUUGUAAGUAAUCUUGCCAAAAGUGAGCGGGUUAGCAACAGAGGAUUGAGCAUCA	35.4 ratio
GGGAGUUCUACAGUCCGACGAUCAGUAAGCGGGAUUUUAUGCUGAUCACAAACAAAUCCUUGAAAGAAGAAGAUGGAGAAGAAAUAGUUACCUAUGAUCGAGUAUACCAUGCUGUGUCUGUUAUGCGGCAAAGCCGAAGAUACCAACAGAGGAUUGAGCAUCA	0.628 ratio
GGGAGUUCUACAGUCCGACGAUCAAAAGUGAGGAUUUGGGGAAAUCAUCAAGAUCGAAAACAGAGAGAGAUGAUAGAUAUUGUAGCUACUCAAAACUUGAACGAGAUACUCGGUAUGUAUCUUCCCGAUGUCGGUCCGAAAGACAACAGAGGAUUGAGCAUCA	0.124 ratio

Set 2
Target: Ras GTPase-activating protein-binding protein 1, full length (G3BP1, Homo sapiens, UniProt Q13283)
Chain of UniProt Q13283 (whole entry, looked up): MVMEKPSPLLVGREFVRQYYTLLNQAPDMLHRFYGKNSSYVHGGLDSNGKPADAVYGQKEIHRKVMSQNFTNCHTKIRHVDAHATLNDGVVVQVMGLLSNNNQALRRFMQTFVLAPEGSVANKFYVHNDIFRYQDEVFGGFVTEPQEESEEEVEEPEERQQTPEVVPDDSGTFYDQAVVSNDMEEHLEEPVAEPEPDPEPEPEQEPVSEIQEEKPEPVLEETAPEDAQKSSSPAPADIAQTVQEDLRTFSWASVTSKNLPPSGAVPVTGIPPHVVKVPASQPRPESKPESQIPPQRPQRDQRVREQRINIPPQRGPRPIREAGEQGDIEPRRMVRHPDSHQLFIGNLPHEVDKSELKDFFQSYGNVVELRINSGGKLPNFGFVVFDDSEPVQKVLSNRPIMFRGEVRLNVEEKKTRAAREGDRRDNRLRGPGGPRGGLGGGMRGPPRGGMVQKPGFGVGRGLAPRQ
Method: RNA Bind-n-Seq
Molecule type: RNA
Sample: in vitro
Concentration: 200 nM
Setting: whole 134-nt RNA, ends assumed
Added: 150 mM KCl
Baseline: input library
Direction: higher = stronger binding
Oligonucleotide	log2 enrichment
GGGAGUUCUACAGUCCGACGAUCACCAUGAAGGUGGGCAUCUUUGGGAAGUGGGGCAAGGGGGGGAUAGGGAGGGGGGUAACACUUUGGGAACAGGUGGUCCCAGGUCGUUUCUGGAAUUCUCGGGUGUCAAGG	1.27
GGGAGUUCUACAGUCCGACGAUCUGGCCCUGGUGGCAUGCGGGGAGGAAGAGGUGGCCUCAUGGAUCGUGGGGGUCCCGGUGGAAUGUUCAGAGGUGGCCGUGGUGGAGACAGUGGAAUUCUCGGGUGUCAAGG	0.396
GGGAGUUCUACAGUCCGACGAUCGUCCUGUGCUACACAUCGUAUGUACCGAAUCGGGGUUUUUGGGGUGGGGAAAAAGGGGAAAGUAUUAUGUUACGCCGUUCGGAUCUGCACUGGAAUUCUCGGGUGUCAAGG	0.457
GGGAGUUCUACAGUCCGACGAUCAAGUCCUGUGCUACACAUCGUAUGUACCGAAUCGGGAAAAAGGGAAAGGGAAAGGGAAAGUAUUAUGUUACGCCGUUCGGAUCUGCACUUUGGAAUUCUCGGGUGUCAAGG	0.0618
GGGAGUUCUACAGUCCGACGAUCCACAGACAACACGGACCCACACAGACACAGAGGGAAGGGGUUGGGAUGGGGACAGGGUGCACAGCAGGGCGGGGUAGGACCCCAGCCCCUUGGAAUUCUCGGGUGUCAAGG	2.04
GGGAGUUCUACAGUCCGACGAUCCCUGUGCUACACAUCGUAUGUACCGAAUCGGGGUUUUUGGGGUUUUUGGGGAAAAAGGGGAAAGUAUUAUGUUACGCCGUUCGGAUCUGCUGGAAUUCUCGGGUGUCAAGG	0.106
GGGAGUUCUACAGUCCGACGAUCCACAGACAACACGCACCCACACAGACACAGAGGGAAGGUGUUGGGAUGGGGACAGGGUGCACAGCAGGGCGGGGUAGGACCCCAGCCCCUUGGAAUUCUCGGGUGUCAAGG	1.36
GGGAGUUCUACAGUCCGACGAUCAGUCCUGUGCUACACAUCGUAUGUACCGAAUCGGGGCCCCGGGGCCCCGGCCCCGGGGAAAGUAUUAUGUUACGCCGUUCGGAUCUGCACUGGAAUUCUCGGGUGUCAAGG	-0.549
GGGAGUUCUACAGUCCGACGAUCGCAGGAAGUAAAAACAAAUGGAAAUGCUUCGGAUAGUGGCAGGGGUGGGGGUUGCUAAGGAAAGGGUGGGAUCGGAGUGGGUAAAGAGUUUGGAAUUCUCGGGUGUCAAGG	0.822
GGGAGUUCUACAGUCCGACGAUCACCAUGAAAGUGGGCAUCUUUGGGAAGUGGGGCAAGGGGGGGAUAGGGAGGGGGGUAACACUUUGGGAACAGGUGGUCCCAGGUCGUUUCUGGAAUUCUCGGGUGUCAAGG	0.762

Set 3
Target: RNA binding protein fox-1 homolog 2, RRM domain, GST-SBP tag (RBFOX2, Homo sapiens, UniProt O43251-10, residues 100-194)
Method: RNA Bind-n-Seq
Molecule type: RNA
Sample: in vitro
Concentration: 365 nM
Setting: natural RNA segment, single round, ends assumed
Baseline: no-protein control
Direction: higher = stronger binding
Target sequence (chain): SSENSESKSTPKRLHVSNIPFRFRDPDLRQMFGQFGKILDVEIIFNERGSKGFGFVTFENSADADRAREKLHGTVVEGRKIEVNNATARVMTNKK
Oligonucleotide	RBNS enrichment (R)
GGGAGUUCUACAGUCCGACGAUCGUCCAGGGAAUGGAGAAUGGUGUUCCAUUGCCUCUUUUCACAUUUUUUUUCUUUUUCUUUUUUUUUUCUGUUGAAGAUUAACACUAAUUAUCACGUCUGACAAAUGUGUAUGGAAUUCUCGGGUGCCAA	1.32
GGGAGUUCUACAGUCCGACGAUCACAAGACUUCUUGGCUUUUCCAAAGACAGAGAUUUCUGGGGGGAAGCCGAAUAUUUCUACCUAAACUCUGGGUGUGACCUCAGCUCGCUUUCCUCUGAUCCACUGUCCAAUGGAAUUCUCGGGUGCCAA	0.315
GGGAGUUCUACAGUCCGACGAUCAGUGUUAAAGCACUUAAUCCAAAUUAGCCCAUCUUUAACUGUUUUGAAAAAUCUAUAUUUAUUAAAGGUAGUAGACAUUUGAAUAUAGUAAUCAAAUUAACUGAUUUUGUUGGAAUUCUCGGGUGCCAA	0.822
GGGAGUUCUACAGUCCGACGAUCACCAGUUUUUACUUUCUGUCUAGAAUGAUGUACAUGUAGUAGAGUAAGCCAUAAUGCUCCCAAAGUGCCUUGUUUUCUCUGAUACAAACAUAUUUAUAAGGACAUAUUCCUGGAAUUCUCGGGUGCCAA	0.42
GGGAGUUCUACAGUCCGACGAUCGCCAUUUUAAUGAGAUGAUUUUCUUCAUCUCAUAAUUAAAAUACCUGACUUUAGAGAGAGUAAAAUGUGCCAGGAGCCAUAGGAAUAUCUGUAUGUUGGAUGACUUUAAUUGGAAUUCUCGGGUGCCAA	0.529
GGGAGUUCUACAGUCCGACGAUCUAUACAAACAUAAGUUUAUUUUAUAUGCCCAGAUGUCUACAGAGACCCUUUUUGUAAAUGUCAAGGACAUUUGGAUUUACUUUUACAGAAUAUUGAAAAGAUAAGACAAAUGGAAUUCUCGGGUGCCAA	0.269
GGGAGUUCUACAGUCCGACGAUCUUUUGUACAGUGAACUGUGACUUUGUUGAUGUUUGCUUUAGCUAUAUUCAAGGCAGUGGUCUGUGGCUACAGGAAGCUGGUUCUACUGUCUGCUUAACAAACUGUCUUUGUGGAAUUCUCGGGUGCCAA	0.406
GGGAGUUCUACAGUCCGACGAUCACUCUGAAAUUGGUCACUUUCCUAUUACACGGAGUGUGCUAAAACUAAAAAGCAUUUUGAAACAUACAGAAUGUUCUAUUGUCAUUGGGAAAUUUUUCUUUCUAACCCAGUGGAAUUCUCGGGUGCCAA	0.473
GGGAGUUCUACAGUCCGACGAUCACAUGACUCUGGAAGGCGACGACCUCAUCCUAGAGAUUGAUGAUCUUACUCCAGCCUGGCAGCCUGGCCGACCCUACCCCAAGCCUCUCAACAGAAGCUGUGCAGCCAGGUGGAAUUCUCGGGUGCCAA	0.338

Set 4
Target: TAR DNA-binding protein 43, full length, His tag (TARDBP, Homo sapiens, UniProt Q13148, residues 1-414)
Method: RNA Bind-n-Seq
Molecule type: RNA
Sample: in vitro
Concentration: 20 nM
Setting: 6-mer, flanks averaged, single round
Added: 150 mM LiCl
Baseline: input library
Direction: higher = stronger binding
Oligonucleotide	6-mer enrichment (R)
GGAGAG	1.22
AACAUC	0.805
ACUUGU	0.947
GACUUU	0.944
GUUGAC	0.981
UAACAC	0.852
AGUAAC	0.844
UGUGCC	1.19
GAAUAU	0.922
AGCGGU	0.991
CAAAUC	0.83
CGCCCU	1.03
AAUCUU	0.913
GAGCGC	0.992
AAACGU	0.837
AUAGGU	0.981
GUUCCG	0.93
AGACUU	0.819
GGACUU	1.03

Repeated from above (set 3):
Oligonucleotide	RBNS enrichment (R)
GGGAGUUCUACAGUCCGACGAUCAGUGUUAAAGCACUUAAUCCAAAUUAGCCCAUCUUUAACUGUUUUGAAAAAUCUAUAUUUAUUAAAGGUAGUAGACAUUUGAAUAUAGUAAUCAAAUUAACUGAUUUUGUUGGAAUUCUCGGGUGCCAA	0.822
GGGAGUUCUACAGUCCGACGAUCUAUACAAACAUAAGUUUAUUUUAUAUGCCCAGAUGUCUACAGAGACCCUUUUUGUAAAUGUCAAGGACAUUUGGAUUUACUUUUACAGAAUAUUGAAAAGAUAAGACAAAUGGAAUUCUCGGGUGCCAA	0.269
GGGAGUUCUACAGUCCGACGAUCGUCCAGGGAAUGGAGAAUGGUGUUCCAUUGCCUCUUUUCACAUUUUUUUUCUUUUUCUUUUUUUUUUCUGUUGAAGAUUAACACUAAUUAUCACGUCUGACAAAUGUGUAUGGAAUUCUCGGGUGCCAA	1.32
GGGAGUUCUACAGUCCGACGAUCGCCAUUUUAAUGAGAUGAUUUUCUUCAUCUCAUAAUUAAAAUACCUGACUUUAGAGAGAGUAAAAUGUGCCAGGAGCCAUAGGAAUAUCUGUAUGUUGGAUGACUUUAAUUGGAAUUCUCGGGUGCCAA	0.529
